Experimental data pooled from the literature.
Each numbered part is a random draw from the data of one study; scales do not carry over between parts.

Study 1
Target: DNA polymerase theta, ATPase domain (POLQ, Homo sapiens, UniProt O75417)
Chain of UniProt O75417 (whole entry, unmodified, looked up): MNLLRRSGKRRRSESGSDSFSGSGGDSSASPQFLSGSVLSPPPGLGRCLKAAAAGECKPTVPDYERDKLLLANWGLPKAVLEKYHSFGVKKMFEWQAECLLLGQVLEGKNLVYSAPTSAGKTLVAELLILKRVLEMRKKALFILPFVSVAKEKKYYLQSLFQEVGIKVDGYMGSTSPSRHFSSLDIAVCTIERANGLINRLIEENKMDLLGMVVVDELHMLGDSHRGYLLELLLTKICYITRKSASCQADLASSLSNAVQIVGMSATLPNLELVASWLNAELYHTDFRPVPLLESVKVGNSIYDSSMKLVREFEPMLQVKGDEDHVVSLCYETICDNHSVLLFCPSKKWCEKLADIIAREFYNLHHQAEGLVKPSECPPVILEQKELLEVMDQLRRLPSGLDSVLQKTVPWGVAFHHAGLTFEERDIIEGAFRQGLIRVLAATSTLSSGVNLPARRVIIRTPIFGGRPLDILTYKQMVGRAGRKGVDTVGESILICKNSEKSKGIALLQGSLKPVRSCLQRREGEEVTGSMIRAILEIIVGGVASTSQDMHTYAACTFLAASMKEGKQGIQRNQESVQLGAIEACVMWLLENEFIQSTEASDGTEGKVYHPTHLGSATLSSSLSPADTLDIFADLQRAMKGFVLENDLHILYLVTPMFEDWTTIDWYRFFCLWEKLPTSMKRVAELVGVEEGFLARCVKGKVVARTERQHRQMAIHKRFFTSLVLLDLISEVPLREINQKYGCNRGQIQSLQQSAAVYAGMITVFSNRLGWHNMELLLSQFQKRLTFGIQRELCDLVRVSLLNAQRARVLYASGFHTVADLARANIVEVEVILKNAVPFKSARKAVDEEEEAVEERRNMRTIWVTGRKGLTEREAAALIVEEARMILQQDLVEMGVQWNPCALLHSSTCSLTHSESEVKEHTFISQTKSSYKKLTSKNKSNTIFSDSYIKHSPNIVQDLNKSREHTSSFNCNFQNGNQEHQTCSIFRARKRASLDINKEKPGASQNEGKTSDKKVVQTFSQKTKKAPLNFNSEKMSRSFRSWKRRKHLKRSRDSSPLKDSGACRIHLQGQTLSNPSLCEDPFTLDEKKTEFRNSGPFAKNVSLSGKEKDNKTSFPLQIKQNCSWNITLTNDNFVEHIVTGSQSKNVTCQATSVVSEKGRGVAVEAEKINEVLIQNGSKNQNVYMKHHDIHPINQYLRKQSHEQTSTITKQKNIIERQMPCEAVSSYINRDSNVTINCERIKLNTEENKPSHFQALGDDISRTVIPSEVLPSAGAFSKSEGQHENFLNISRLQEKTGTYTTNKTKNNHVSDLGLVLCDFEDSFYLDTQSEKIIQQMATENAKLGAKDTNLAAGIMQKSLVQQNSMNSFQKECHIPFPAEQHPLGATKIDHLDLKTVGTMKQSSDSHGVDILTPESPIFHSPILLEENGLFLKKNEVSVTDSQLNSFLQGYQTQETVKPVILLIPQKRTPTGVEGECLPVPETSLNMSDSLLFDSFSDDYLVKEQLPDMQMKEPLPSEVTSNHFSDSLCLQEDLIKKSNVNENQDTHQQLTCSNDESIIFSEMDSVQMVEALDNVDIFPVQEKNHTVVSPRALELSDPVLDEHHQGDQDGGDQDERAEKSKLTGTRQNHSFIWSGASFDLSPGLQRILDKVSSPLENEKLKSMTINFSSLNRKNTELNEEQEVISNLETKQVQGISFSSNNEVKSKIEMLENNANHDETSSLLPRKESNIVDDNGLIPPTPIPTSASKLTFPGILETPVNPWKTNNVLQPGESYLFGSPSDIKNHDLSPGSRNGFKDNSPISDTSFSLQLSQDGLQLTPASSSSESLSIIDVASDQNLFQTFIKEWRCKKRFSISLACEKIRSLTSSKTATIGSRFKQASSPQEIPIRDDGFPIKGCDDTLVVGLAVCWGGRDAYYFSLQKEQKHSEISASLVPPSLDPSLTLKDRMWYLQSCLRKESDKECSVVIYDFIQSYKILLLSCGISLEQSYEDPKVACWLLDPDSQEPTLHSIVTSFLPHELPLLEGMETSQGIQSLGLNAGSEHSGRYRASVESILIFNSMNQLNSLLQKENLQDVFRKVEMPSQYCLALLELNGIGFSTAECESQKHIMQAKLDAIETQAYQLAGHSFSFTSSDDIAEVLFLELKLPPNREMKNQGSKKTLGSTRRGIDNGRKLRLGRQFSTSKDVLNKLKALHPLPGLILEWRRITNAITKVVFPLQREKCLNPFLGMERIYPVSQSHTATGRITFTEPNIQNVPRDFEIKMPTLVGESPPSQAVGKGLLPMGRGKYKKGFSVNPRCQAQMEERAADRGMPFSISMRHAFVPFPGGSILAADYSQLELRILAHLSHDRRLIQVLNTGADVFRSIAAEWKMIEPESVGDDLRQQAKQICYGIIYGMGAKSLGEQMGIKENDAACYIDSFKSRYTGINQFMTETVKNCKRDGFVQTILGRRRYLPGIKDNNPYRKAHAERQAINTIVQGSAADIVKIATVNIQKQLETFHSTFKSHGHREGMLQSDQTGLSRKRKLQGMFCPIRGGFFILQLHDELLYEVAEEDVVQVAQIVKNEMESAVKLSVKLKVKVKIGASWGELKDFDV
Read-out: enzyme activity
Mode: inhibitor
Tested at: 77 µM
Reference: untreated
SMILES | remaining activity
C=C1C[C@@H]2[C@H](CC[C@]3(C)C(=O)CC[C@@H]23)[C@@]2(C)C=CC(=O)C=C12 | 108%
O=C1NC(=O)c2c1c1c3ccccc3n3c1c1c2c2ccccc2n1[C@H]1CC[C@@H]3O1 | 95.1%
O=S1(=O)N(CCN2CC=C(c3c[nH]c4cc(F)ccc34)CC2)c2cccc3c2N1CCC3 | 102%
NC(=O)CN1CC(O)CC1=O (centres unmarked) | 99.5%
NCCc1ccc(O)cc1 | 110%
CC(C)NP(=O)(NC(C)C)OP(=O)(NC(C)C)NC(C)C | 97.1%

Study 2
Target: Serine/threonine-protein kinase PknB (pknB, Mycobacterium tuberculosis, UniProt P9WI81)
Chain of UniProt P9WI81 (whole entry, looked up): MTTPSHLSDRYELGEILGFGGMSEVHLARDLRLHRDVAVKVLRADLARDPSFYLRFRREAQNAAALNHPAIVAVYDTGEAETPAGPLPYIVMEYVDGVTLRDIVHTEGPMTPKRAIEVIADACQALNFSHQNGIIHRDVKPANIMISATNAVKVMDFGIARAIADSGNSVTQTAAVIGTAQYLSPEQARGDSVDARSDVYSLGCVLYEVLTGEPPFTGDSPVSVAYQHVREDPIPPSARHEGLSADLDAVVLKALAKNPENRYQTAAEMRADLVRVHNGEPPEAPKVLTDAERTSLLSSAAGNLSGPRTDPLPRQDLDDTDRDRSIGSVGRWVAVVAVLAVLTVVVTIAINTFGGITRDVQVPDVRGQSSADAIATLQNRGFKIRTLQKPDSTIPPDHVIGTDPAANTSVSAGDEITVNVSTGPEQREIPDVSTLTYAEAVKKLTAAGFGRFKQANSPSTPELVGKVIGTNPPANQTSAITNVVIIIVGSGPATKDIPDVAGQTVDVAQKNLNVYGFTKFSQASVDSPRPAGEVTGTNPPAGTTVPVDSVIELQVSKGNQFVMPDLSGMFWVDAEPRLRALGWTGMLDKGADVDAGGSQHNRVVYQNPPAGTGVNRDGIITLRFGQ
Read-out: cell-free assay
Method: competition with immobilised ligand
Tested at: 1 µM
SMILES | remaining binding [%]
CO[C@@H](C)c1c(Nc2ccc([C@@H](N(C)C(=O)C3CCS(=O)(=O)CC3)C(F)(F)F)cc2)cnc2cc(Cl)nn12 | 100
Cc1nccc(COC(=O)N2C[C@@H]3[C@@H](CNC(=O)c4ccc5[nH]nnc5c4)[C@@H]3C2)n1 | 100
N#CC1(c2ccccn2)CCN(Cc2cc(C(=O)N3CCCC3)c(=O)n3ccccc23)CC1 | 92
NS(=O)(=O)c1cc(NC(=O)Cc2ccccc2)ccc1Oc1cccc(Cl)c1 | 89
CCS(=O)(=O)c1cc2cc(C[C@](O)(CC(C)(C)c3ccc(F)cc3C(N)=O)C(F)(F)F)[nH]c2cn1 | 95

Study 3
Target: Calcium/calmodulin-dependent protein kinase type II subunit alpha (CAMK2A, Homo sapiens, UniProt Q9UQM7)
Chain of UniProt Q9UQM7 (whole entry, looked up): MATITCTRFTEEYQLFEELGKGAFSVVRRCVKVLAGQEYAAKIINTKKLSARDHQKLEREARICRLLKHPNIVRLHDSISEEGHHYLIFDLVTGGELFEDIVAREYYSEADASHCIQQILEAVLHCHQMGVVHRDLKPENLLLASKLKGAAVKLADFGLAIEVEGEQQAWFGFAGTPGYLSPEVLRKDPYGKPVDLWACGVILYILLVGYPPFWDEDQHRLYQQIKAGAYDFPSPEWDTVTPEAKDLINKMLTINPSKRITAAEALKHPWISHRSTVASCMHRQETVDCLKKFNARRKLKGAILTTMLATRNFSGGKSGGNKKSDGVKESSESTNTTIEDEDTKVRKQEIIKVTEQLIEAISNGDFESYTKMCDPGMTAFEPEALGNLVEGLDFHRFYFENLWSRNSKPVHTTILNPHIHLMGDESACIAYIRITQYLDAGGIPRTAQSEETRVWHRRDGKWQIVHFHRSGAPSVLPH
Read-out: enzyme activity
Mode: inhibitor
Tested at: 10 µM
SMILES | inhibition [%]
c1ccc2c(c1)Nc1ccccc1S2 | 3
C=C[C@H]1CN2CC[C@@]3(C(=O)Nc4ccccc43)[C@@H]2C[C@@H]1/C(=C\OC)C(=O)OC | 6
CN(C)[C@@H]1C(=O)C(C(N)=O)=C(O)[C@@]2(O)C(=O)C3=C(O)c4c(O)cccc4[C@@](C)(O)[C@H]3[C@H](O)[C@@H]12 | -2
COC(=O)c1ccccc1C(=O)OC | 12
Oc1cc(Cl)ccc1Oc1ccc(Cl)cc1Cl | -12
COC[C@]12CN(C)C3[C@@H]4[C@H](OC)[C@H]1[C@@]3([C@@H](OC)C[C@H]2O)[C@]1(O)C[C@@]2(O)[C@H](OC(=O)c3ccccc3)[C@@H]1[C@]4(OC(C)=O)[C@@H](O)[C@@H]2OC | 3
COc1ccc(C=O)cc1OC | 2
Nc1ncnc2c1ncn2[C@@H]1O[C@H](COP(N)(=O)O)[C@@H](O)[C@H]1O | 11
CCOC1c2c(ccc3c2OCO3)-c2ccc3cc4c(cc3c2N1C)OCO4 (centres unmarked) | -16
O=c1cccc2n1C[C@@H]1CNC[C@H]2C1 | -13

Further values, each from its own experiment
Target: Bromodomain-containing protein 4, BD1 (BRD4, Homo sapiens, UniProt O60885)
Tested at: 50 µM
Compound | inhibition [%]
COC[C@H]1OC(=O)c2coc3c2[C@@]1(C)C1=C(C3=O)[C@@H]2CCC(=O)[C@@]2(C)C[C@H]1OC(C)=O | 4.05
Cn1cc(C2=C(c3cn(C4CCN(Cc5ccccn5)CC4)c4ccccc34)C(=O)NC2=O)c2ccccc21 | 80.5
